Experimental data of several laboratories.
Each numbered part is a random draw from the data of one study; scales do not carry over between parts. Changes are numbered by the printed parent chain.

Block 1 — target: CCND2, cyclin fold, Cln2 fusion (human); technique: yeast growth competition, sequencing; matrix: yeast; setting: weak parent motif; relative to: not given; direction: higher = stronger binding
Parent: SLBP docking peptide (human); ARYKRKLLINDFG
Under “normalised enrichment score”, `ARYKRKLLINDQG [F12Q]` is recorded as -0.185.
`ARYKRKLLINDFQ [G13Q]` — result for “normalised enrichment score”: -0.0521.
`ARMKRKLLINDFG [Y3M]` — result for “normalised enrichment score”: 0.695.
For `ARYDRKLLINDFG [K4D]`, “normalised enrichment score” read 0.089.
Under “normalised enrichment score”, `ARYKRKLLINIFG [D11I]` is recorded as 0.00711.
For `ARYKRLLLINDFG [K6L]`, “normalised enrichment score” read 0.476.
`ARYKRKLLINDVG [F12V]`: “normalised enrichment score” 0.269.
`ARYKRKLLINDFN [G13N]`: “normalised enrichment score” -0.144.
`ARYKRKLLINDEG [F12E]`: “normalised enrichment score” 0.0257.

Block 2 — technique: RNA Bind-n-Seq; molecule type: RNA; matrix: in vitro; concentration: 365 nM; relative to: no-protein control; direction: higher = stronger binding
Target: RNA binding protein fox-1 homolog 2, RRM domain, GST-SBP tag (RBFOX2, Homo sapiens, UniProt O43251-10, residues 100-194)
Setting: natural RNA segment, single round, ends assumed
Residues (chain): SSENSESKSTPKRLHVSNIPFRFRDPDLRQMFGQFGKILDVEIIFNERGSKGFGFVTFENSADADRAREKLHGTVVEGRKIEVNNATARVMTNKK
Under “RBNS enrichment (R)”, `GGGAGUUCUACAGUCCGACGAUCGACAGAUAGUUUCCAGAGUACGCCAUGUAUAGCAAAGAACCCUGCCAUAGUUUUGACUCAGCCCCAUGCAUCCUUUCCCUCUUUCCUGAAAACAACUAAUUUAAAUUUGCUGGAAUUCUCGGGUGCCAA` is recorded as 1.26.
Under “RBNS enrichment (R)”, `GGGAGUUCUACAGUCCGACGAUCAUGACCUUCACCUCUGGAGAGUAGGGUCUAUGGCGAGGGAAAAGGGUGUUCACCAUGAUAACCUAGUGCCUCCAUAGAGGGGUUUGGAAAAAUUCCAGUCCGAUUUCUUUUGGAAUUCUCGGGUGCCAA` is recorded as 0.331.
Under “RBNS enrichment (R)”, `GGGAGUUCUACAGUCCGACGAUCUUACAAAUAUUACAAAGUAAAAUCUAGCGUCAUAUCCAAUUCUUCCAAAUGACCUCUAUCAGCUGUUGAGUCAGACAGAUCCACGGACAUGUCUACCAAAAAAUGAUGUGUGGAAUUCUCGGGUGCCAA` is recorded as 0.269.
For `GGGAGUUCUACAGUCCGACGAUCAGAUUCCAGACUCUGAUUCAUUAAACUAUAGUCACCCGUGUCCUGUGAUUUUAGUUUUCAUUUGUGUUUAUGUCUGUGCUGCAGACGGAUGGGUGGGGUGCGCUUCUUUAUGGAAUUCUCGGGUGCCAA`, “RBNS enrichment (R)” read 0.929.
`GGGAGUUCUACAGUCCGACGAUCUCUUACCGAGUCCAUAGCUUCAUGCCCCUCUCGUGACUUACUGAGGGUCCAGAUGGCUGUCAGGAAGAUGACAAGGUAGGGAGGUAAGGACCGUGUUUGGAGGCUUCUGGUGGAAUUCUCGGGUGCCAA` — result for “RBNS enrichment (R)”: 0.473.
`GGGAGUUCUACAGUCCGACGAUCAAGGGAUUAUCACAGCGCAAUCAUUGUCUACAACAACGUGUACACUCAAUGCCUGGGUUACAUAGGAAAUGCACCCUGAGGUUUUAAUAAAGCCCCUAUGGCUAUAACUUUGGAAUUCUCGGGUGCCAA`: “RBNS enrichment (R)” 0.422.
Under “RBNS enrichment (R)”, `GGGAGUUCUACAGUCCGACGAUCGCAGACCAGAGCCUCACACCUCUGGGUUGGGUGUGGAGGAAGAGGGGUACUGAGUUCCCUGGUCCUUUGGCUGUGUGUGCAGCGUGCAGAUUUCGGGACACCGAAACUUUUGGAAUUCUCGGGUGCCAA` is recorded as 0.344.
For `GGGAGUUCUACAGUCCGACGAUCAUUUUAAAAAGACGUACAUAGAAACUUAGGCACUUUGCUAUUUCUUUUCUAAACUAUCAAAAACUCUAGCAGUUUGAAAAGCCUAAUAUUUAUUUGUAUGUCAGUAUUUUUGGAAUUCUCGGGUGCCAA`, “RBNS enrichment (R)” read 0.646.
Under “RBNS enrichment (R)”, `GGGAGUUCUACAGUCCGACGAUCCAGAUGUGAAGCCUGGAGCUUUCCUGAUGAUGCUGGCCCUACAGUACCCCCAUGAGGGGAUUCCCUUCCUUCUGUUGCUGGUGUACUCUAGGACUUCAAAGUGUGUCUGGUGGAAUUCUCGGGUGCCAA` is recorded as 0.34.

Block 3 — technique: protein binding microarray; molecule type: double-stranded DNA, one strand shown; matrix: in vitro; concentration: not given; relative to: not given; direction: higher = stronger binding
Target: Histone acetyltransferase KAT6A, winged helix 1, GST fusion (KAT6A, Homo sapiens, UniProt Q92794, residues 1-85)
Setting: 8-mer, flanks averaged, mean of 2 arrays, mostly near background
Construct (chain): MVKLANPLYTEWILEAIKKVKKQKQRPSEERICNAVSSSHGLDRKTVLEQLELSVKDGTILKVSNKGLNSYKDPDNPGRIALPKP
The E-score of `AATACTAG` is reported as -0.12.
`CCATGGGC` gave an E-score of -0.149.
`AGCGGATA` gave an E-score of 0.208.
The E-score of `CATATGTC` is reported as -0.00319.
`ACCCCGTG` has an E-score of 0.321.
`GATTGCGA` gave an E-score of 0.14.
With `ACGTAAAG` the E-score was -0.0387.
`ATGAAGTC` gave an E-score of -0.186.
With `CTGCCGTC` the E-score was 0.324.
`TCCACGGA` has an E-score of 0.237.
With `GAGTTCAA` the E-score was -0.19.
`AATTTAAA` has an E-score of -0.297.

Further values, each from its own experiment
`PhoQ, residues 284 288 289 292 302 303 ALVSVA` gave a fold induction of 21.9 (PhoP, residues 12 14 15 18 19 GQALL (Escherichia coli, UniProt P23836); Sort-seq, item: YFP reporter; E. coli; PhoQ-PhoP variant library, added: 10 µM Mg2+; relative to: high Mg2+ state, higher = stronger signaling).
